Measurements from different studies.
Each line is one published result; not all experiments were run side by side. ± gives the spread as reported.

Cc1cc(-c2nnc(N)nc2-c2ccc(F)cc2)cc(Cl)n1  terminal half-life (human patients, plasma; oral, 75 mg nanosuspension once daily, multiple doses, arithmetic mean): 11.2 h
C#C[C@]1(O)CC[C@H]2[C@@H]3CCc4cc(O)ccc4[C@H]3CC[C@@]21C  terminal half-life (human female; oral, single dose oral contraceptive, cpd alone): 18.4 ± 6 h
CN(CC#N)C(=O)C[C@H](Nc1nc2ccccc2[nH]1)c1cccc(C(F)(F)F)c1  terminal half-life (human; intravenous infusion, 2 mg/kg, 1 mg/mL formulation): 4.14 ± 0.45 h
Cc1cc(-c2nccc3c2ccn3CC(=O)Nc2ccc(-c3cnccn3)cn2)ccn1  terminal half-life (human, plasma; oral, 20 mg once daily, day 16, geometric mean): 17.2 h
Cn1cc(-c2ccc(S(=O)(=O)[C@@H]3C[C@@H](C(=O)NC4(C#N)CC4)N(C(=O)C4(C(F)(F)F)CC4)C3)c(C(F)(F)F)c2)cn1  terminal half-life (noncompartmental; human, both sexes, plasma; oral, 600 mg single dose, fasted): 13.3 h
N#Cc1cc(NC(=O)[C@H]2c3ccccc3C(=O)N(CC(F)(F)F)[C@@H]2c2cccnc2)ccc1F  terminal half-life (human; oral, median, interim, dose-independent): ~18 h
O=C(O)CCC(=O)O.[2H]C([2H])([2H])Oc1cc(C)c2[nH]ccc2c1CN1CC[C@@H](C2CC2)C[C@H]1c1ccc(C(=O)O)cc1  terminal half-life (healthy humans, fed; oral, 200 mg, single dose, high-fat meal): 29.8 h
C=CC(=O)N1C[C@H](Nc2ncnc3[nH]ccc23)CC[C@@H]1C  terminal half-life (human, plasma; oral, 50 mg single dose, alone without rifampicin): 1.2 ± 0.2 h
CC(C)c1nc(N(C)S(C)(=O)=O)nc(-c2ccc(F)cc2)c1/C=C/[C@@H](O)C[C@@H](O)CC(=O)O  terminal half-life (human, plasma; oral, dose not given, single dose alone, geometric mean): 13.9 h
Cc1[nH]c(/C=C2\C(=O)Nc3ccc(F)cc32)c(C)c1C(=O)N[C@H]1CCN(C(=O)N(C)C)C1  terminal half-life (human patients, plasma; oral, 100 mg single dose, together with: everolimus 5 mg): 4.74 ± 1.44 h
C[C@@]1(c2cc(NC(=O)c3ccc(C#N)cn3)ccc2F)C=CSC(N)=N1  terminal half-life (elderly humans, both sexes, plasma; oral, 3 mg single dose, mean): 13.9 h
CC[C@H](C)[C@H](NC(=O)[C@H](Cc1ccccc1)NC(=O)[C@H](CCC(=O)O)NC(=O)[C@H](CCCCNC(=O)COCCOCCNC(=O)COCCOCCNC(=O)CC[C@H](NC(=O)CCCCCCCCCCCCCCCCC(=O)O)C(=O)O)NC(=O)[C@H](C)NC(=O)[C@H](C)NC(=O)[C@H](CCC(N)=O)NC(=O)CNC(=O)[C@H](CCC(=O)O)NC(=O)[C@H](CC(C)C)NC(=O)[C@H](Cc1ccc(O)cc1)NC(=O)[C@H](CO)NC(=O)[C@H](CO)NC(=O)[C@@H](NC(=O)[C@H](CC(=O)O)NC(=O)[C@H](CO)NC(=O)[C@@H](NC(=O)[C@H](Cc1ccccc1)NC(=O)[C@@H](NC(=O)CNC(=O)[C@H](CCC(=O)O)NC(=O)C(C)(C)NC(=O)[C@@H](N)Cc1cnc[nH]1)[C@@H](C)O)[C@@H](C)O)C(C)C)C(=O)N[C@@H](C)C(=O)N[C@@H](Cc1c[nH]c2ccccc12)C(=O)N[C@@H](CC(C)C)C(=O)N[C@H](C(=O)N[C@@H](CCCNC(=N)N)C(=O)NCC(=O)N[C@@H](CCCNC(=N)N)C(=O)NCC(=O)O)C(C)C  terminal half-life (human, plasma; oral, 14 mg once daily, geometric mean): 154 h
COc1nnc2ccc(N3CCC(c4ccc(OCCN5CCN(C)C(=O)[C@H]5C)cc4)CC3)nn12  terminal half-life (human, plasma; oral, 10 mg once daily, multiple dose, monotherapy): 5.19 h
Cc1cc(Nc2ccc(S(F)(F)(F)(F)F)cc2)n2nc(C(C)(F)F)nc2n1  terminal half-life (LC-MS/MS; human vivax malaria patients, plasma; oral, 800 mg, mean): 110 h
CN1C(=O)[C@@H](NC(=O)c2nnc(Cc3ccccc3)[nH]2)COc2cccnc21  terminal half-life (human, plasma; oral, 50 mg once daily, day 14, geometric mean): 6.3 h
C[C@@H](c1ccc2nccn2c1)n1nnc2ncc(-c3cnn(C)c3)nc21  terminal half-life (noncompartmental analysis; human, plasma; oral, 300 mg, cycle 2 day 1, multiple dosing): 3.21 h
Cl.O=C(NC1CCOCC1)c1csc([C@@H]2C[C@H]2NCC2CC2)c1  terminal half-life (human, fed, plasma; oral, 30 mg single dose): 4.49 h

Some of these lines once more:
C#C[C@]1(O)CC[C@H]2[C@@H]3CCc4cc(O)ccc4[C@H]3CC[C@@]21C  terminal half-life (human female; oral, single dose oral contraceptive, cpd alone): 18.4 ± 6 h
CN(CC#N)C(=O)C[C@H](Nc1nc2ccccc2[nH]1)c1cccc(C(F)(F)F)c1  terminal half-life (human; intravenous infusion, 2 mg/kg, 1 mg/mL formulation): 4.14 ± 0.45 h
